{"data": "Results of several laboratories", "note": "Protocols differ between the studies behind these lines. Values joined by “and” are separate records of one study, mostly repeats; a detail may differ. Numbers after ± are the reported error."}
{"SMILES": "CN(C)c1cc(NC(=O)CNC(C)(C)C)c(O)c2c1C[C@H]1C[C@H]3[C@H](N(C)C)C(O)=C(C(N)=O)C(=O)[C@@]3(O)C(O)=C1C2=O", "test": "starch gel membrane permeability", "system": "Gram-negative envelope surrogate", "conditions": "200 µM, 10 min, pH 7.4", "measurement": "amount permeated", "value": "0.47 nmol"}
{"SMILES": "O=C1CCC(N2Cc3cc(CO)c(F)cc3C2=O)C(=O)N1 (stereo not shown)", "system": "cynomolgus monkey, male", "conditions": "oral, 0.3 mg/kg parent drug, 6 h", "measurement": "plasma concentration", "value": "0.25 ± 0.22 ng/mL"}
{"SMILES": "Cc1ccc(C(=O)N(CCCN)C(c2nc3snc(C)c3c(=O)n2Cc2ccccc2)C(C)C)cc1 (stereo not shown)", "test": "measured: Hyperbilirubinemia", "system": "human patients", "conditions": "intravenous, dose not given, CTCAE grade ≥3, all doses", "measurement": "patients with adverse events", "value": "5%"}
{"SMILES": "O=C1CC[C@H](N2Cc3cc(N4CCN(CC5CCN(c6ccc([C@@H]7c8ccc(O)cc8CC[C@@H]7c7ccccc7)cc6)CC5)CC4)ccc3C2=O)C(=O)N1", "test": "radiolabelled mass balance", "system": "Sprague-Dawley rat, male, bile duct-cannulated, bile", "conditions": "oral, 20 mg/kg, up to 72 h", "measurement": "dose excreted", "value": "18.3%"}
{"SMILES": "CC(C)(Sc1ccncc1-c1ccc(C#N)c2ccccc12)C(=O)O", "system": "human, plasma", "conditions": "oral, 15 mg once daily, together with: febuxostat 0 mg", "measurement": "AUC(0-24)", "value": "318 ng·h/mL"}
{"SMILES": "COc1cc(CCC(=O)O)ccc1O[C@@H]1O[C@H](C(=O)O)[C@@H](O)[C@H](O)[C@H]1O", "system": "human plasma", "conditions": "mean", "measurement": "plasma concentration", "value": "0.619 µM"}
{"SMILES": "COc1cc2c(NC3CCN(C)CC3)nc(N3CCCN(C)CC3)nc2cc1OCCOCCN(C)C", "target or system": "OCI-Ly1", "conditions": "1 µM, 120 h", "measurement": "viability", "value": "155%"}
{"SMILES": "Cc1c2oc3c(C)ccc(C(=O)N[C@@H]4C(=O)N[C@H](C(C)C)C(=O)N5CCC[C@H]5C(=O)N(C)CC(=O)N(C)[C@@H](C(C)C)C(=O)O[C@@H]4C)c3nc-2c(C(=O)N[C@@H]2C(=O)N[C@H](C(C)C)C(=O)N3CCC[C@H]3C(=O)N(C)CC(=O)N(C)[C@@H](C(C)C)C(=O)O[C@@H]2C)c(N)c1=O", "test": "LC-MS", "system": "children with cancer, plasma", "conditions": "dose not given, 8 h", "measurement": "minimum plasma concentration", "value": "1.2 µg/L"}
{"SMILES": "CN(C(=O)n1cnc(-c2ccc[n+]([O-])c2)c1)[C@H]1CC[C@H](O)CC1", "system": "rat, cortex", "conditions": "oral, 10 mg/kg daily for 5 days, 4 h", "measurement": "tissue concentration", "value": "8.8 ± 0.6 ng/g"}
{"SMILES": "C[C@H]1CN(C(=O)CC#N)[C@]12CCN(c1ncnc3[nH]ccc13)C2", "system": "healthy adults, plasma", "conditions": "oral, 12 mg single dose, median", "measurement": "t1/2", "value": "2.6 h"}
{"SMILES": "Cn1cc(Nc2nccc(-c3ccc4c(c3)CN(C3COC3)CC[C@H]4NC(=O)c3cn(C(C)(C)C)nn3)n2)cn1", "test": "measured: Plasmablasts count", "system": "human, clinical trial, whole blood", "conditions": "150 mg twice daily, follow-up", "measurement": "percent change from baseline", "value": "34.2%"}
{"SMILES": "O=c1ccccc(C2CCCO2)c1O (stereo not shown)", "system": "C57BL/6 mouse male, turpentine inflammation anemia, serum", "conditions": "200 mg/kg/day, 3 h after last dose", "measurement": "serum concentration", "value": "20 µM"}
{"SMILES": "O=C(O)CCCOc1ccc([18F])cc1-c1cc(-c2ccccc2C(F)(F)F)n(-c2ccccc2)n1", "test": "gamma counting", "system": "male ddY mice, bone", "conditions": "intravenous, 2.1 MBq, 5 min", "measurement": "radioactivity uptake", "value": "1.02 ± 0.19 SUV"}
{"SMILES": "O=C1NCCc2nc(OCc3cccc(F)c3)ccc21", "test": "measured: Piloerection", "system": "Sprague-Dawley rat male", "conditions": "oral, 100 mg/kg, 0 min", "how to read": "baseline: baseline, direction not given", "measurement": "Irwin test score", "value": 0}
{"SMILES": "Cc1cc(C)c(CNC(=O)c2cc(Cl)c3c(c2C)O[C@@](C)([C@H]2CC[C@H](N(C)C)CC2)O3)c(=O)[nH]1", "system": "relapsed/refractory NHL patients", "conditions": "oral, 200 mg once daily, onset after cycle 1 day 1", "measurement": "grade ≥3 Lymphocyte count decreased", "value": "4.2%"}
{"SMILES": "CCCCCCOC(=O)NC(=N)c1ccc(NCc2nc3cc(C(=O)N(CCC(=O)OCC)c4ccccn4)ccc3n2C)cc1", "test": "measured: Nausea", "system": "human", "conditions": "oral, 75 mg, alone", "measurement": "participants with adverse event", "value": "4.2%"}
{"SMILES": "CCc1c(-c2ccccc2)c(-c2ccccc2)nn1-c1ccccc1-c1cccc(OCC(=O)O)c1", "system": "Sprague-Dawley rat", "conditions": "intravenous, dose not given", "measurement": "AUC extrapolated observed", "value": "0.628% and 1.96% and 0.998%"}
{"SMILES": "CCn1cc(C(=O)N2CCOCC2)c(=O)c2cc(NC3Cc4ccccc4C3)cnc21", "system": "human, fasted", "conditions": "oral suspension, 15 mg single dose, arithmetic mean", "measurement": "half-life", "value": "3.23 h"}
{"SMILES": "Cn1c(=O)[nH]c2nc[nH]c2c1=O", "system": "human, both sexes, plasma", "measurement": "samples above LOQ", "value": "100%"}
{"SMILES": "CCCOc1ccn2c(C(C)=O)cc(-c3ccccc3S(C)(=O)=O)c2c1", "target or system": "OCI-Ly1", "conditions": "0.5 µM, 120 h", "measurement": "viability", "value": "110%"}
{"SMILES": "NC(=O)N1c2ccccc2C=Cc2ccccc21", "test": "PAMPA", "system": "artificial lipid membrane", "conditions": "30 min", "measurement": "permeability", "value": "68.9 ± 40.6 ×10⁻⁶ cm/s"}
{"SMILES": "O=C(Nc1nc2cccc(-c3ccc(CN4CCS(=O)(=O)CC4)cc3)n2n1)C1CC1", "test": "measured: renal and urinary disorders", "system": "rheumatoid arthritis patients", "conditions": "oral, 300 mg once daily, 4 weeks, any relatedness", "measurement": "treatment-emergent adverse events", "value": "5%"}
{"note": "Repeated from above:"}
{"SMILES": "O=C1CCC(N2Cc3cc(CO)c(F)cc3C2=O)C(=O)N1 (stereo not shown)", "system": "cynomolgus monkey, male", "conditions": "oral, 0.3 mg/kg parent drug, 6 h", "measurement": "plasma concentration", "value": "0.25 ± 0.22 ng/mL"}
{"SMILES": "Cc1c2oc3c(C)ccc(C(=O)N[C@@H]4C(=O)N[C@H](C(C)C)C(=O)N5CCC[C@H]5C(=O)N(C)CC(=O)N(C)[C@@H](C(C)C)C(=O)O[C@@H]4C)c3nc-2c(C(=O)N[C@@H]2C(=O)N[C@H](C(C)C)C(=O)N3CCC[C@H]3C(=O)N(C)CC(=O)N(C)[C@@H](C(C)C)C(=O)O[C@@H]2C)c(N)c1=O", "test": "LC-MS", "system": "children with cancer, plasma", "conditions": "dose not given, 8 h", "measurement": "minimum plasma concentration", "value": "1.2 µg/L"}
{"SMILES": "NC(=O)N1c2ccccc2C=Cc2ccccc21", "test": "PAMPA", "system": "artificial lipid membrane", "conditions": "30 min", "measurement": "permeability", "value": "68.9 ± 40.6 ×10⁻⁶ cm/s"}
